Published values pooled from the literature.
Compare with care: the assays were run in different laboratories. ± gives the spread as reported.
ilvC: Ketol-acid reductoisomerase (NADP(+)) (ilvC, Mycobacterium tuberculosis, UniProt P9WKJ7)
Sequence of UniProt P9WKJ7 (whole entry, looked up): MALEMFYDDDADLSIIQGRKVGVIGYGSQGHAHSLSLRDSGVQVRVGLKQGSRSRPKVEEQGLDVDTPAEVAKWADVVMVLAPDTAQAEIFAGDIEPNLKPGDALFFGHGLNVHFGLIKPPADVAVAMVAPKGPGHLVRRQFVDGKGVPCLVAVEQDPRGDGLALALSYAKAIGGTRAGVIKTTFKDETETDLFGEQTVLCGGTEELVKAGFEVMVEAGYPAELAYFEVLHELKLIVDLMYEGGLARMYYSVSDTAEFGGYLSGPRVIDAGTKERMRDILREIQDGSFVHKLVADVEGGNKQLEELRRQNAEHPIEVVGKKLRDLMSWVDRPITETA
AMC9: Metacaspase-9 (AMC9, Arabidopsis thaliana, UniProt Q9FYE1)
Sequence of UniProt Q9FYE1 (whole entry, looked up): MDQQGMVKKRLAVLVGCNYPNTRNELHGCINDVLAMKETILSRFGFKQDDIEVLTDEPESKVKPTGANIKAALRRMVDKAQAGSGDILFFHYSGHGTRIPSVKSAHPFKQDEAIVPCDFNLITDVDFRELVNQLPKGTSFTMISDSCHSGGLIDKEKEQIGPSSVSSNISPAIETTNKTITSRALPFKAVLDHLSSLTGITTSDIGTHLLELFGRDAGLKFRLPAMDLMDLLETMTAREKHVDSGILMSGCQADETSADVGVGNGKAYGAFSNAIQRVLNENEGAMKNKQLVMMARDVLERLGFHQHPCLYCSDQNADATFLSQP
PGR: Progesterone receptor (PGR, Homo sapiens, UniProt P06401)
Sequence of UniProt P06401 (whole entry, looked up): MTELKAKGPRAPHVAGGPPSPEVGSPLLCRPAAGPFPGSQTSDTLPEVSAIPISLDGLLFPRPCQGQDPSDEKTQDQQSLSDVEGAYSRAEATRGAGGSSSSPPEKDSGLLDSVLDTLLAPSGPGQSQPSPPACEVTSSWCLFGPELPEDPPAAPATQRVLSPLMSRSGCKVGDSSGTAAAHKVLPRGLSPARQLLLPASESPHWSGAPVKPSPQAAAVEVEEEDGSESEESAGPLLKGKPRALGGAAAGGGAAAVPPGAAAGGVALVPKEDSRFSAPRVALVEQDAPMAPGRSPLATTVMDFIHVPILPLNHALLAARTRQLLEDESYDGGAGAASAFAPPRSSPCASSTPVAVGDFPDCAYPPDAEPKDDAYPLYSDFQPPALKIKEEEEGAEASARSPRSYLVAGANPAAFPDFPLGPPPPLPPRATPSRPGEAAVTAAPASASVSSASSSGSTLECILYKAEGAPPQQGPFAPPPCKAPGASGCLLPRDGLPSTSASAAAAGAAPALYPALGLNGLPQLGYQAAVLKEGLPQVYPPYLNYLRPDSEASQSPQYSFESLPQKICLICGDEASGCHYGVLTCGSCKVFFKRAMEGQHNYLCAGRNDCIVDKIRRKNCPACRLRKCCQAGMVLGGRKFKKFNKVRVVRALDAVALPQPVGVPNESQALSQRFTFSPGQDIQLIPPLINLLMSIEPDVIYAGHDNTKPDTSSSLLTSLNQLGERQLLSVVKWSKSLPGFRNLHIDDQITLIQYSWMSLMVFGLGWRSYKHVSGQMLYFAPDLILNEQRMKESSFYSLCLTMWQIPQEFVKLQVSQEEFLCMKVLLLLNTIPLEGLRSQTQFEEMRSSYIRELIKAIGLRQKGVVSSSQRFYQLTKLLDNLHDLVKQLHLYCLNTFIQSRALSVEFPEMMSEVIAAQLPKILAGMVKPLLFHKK
BCHE: Cholinesterase (BCHE, Homo sapiens, UniProt P06276)
Sequence of UniProt P06276 (whole entry, looked up): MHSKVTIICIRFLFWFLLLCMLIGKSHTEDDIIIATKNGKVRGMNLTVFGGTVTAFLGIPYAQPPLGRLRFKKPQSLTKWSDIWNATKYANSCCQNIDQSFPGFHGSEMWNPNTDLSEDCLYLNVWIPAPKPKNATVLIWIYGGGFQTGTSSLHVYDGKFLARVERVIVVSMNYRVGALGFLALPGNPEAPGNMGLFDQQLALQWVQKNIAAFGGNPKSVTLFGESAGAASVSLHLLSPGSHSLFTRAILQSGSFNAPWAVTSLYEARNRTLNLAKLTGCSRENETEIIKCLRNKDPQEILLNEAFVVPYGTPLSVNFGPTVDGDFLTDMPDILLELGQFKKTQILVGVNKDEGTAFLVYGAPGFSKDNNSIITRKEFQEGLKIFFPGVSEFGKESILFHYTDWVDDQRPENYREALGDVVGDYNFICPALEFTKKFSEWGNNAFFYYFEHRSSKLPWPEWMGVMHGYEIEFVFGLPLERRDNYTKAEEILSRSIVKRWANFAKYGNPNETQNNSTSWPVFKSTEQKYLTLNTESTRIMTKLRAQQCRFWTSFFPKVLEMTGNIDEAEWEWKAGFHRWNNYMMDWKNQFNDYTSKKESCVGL
Sequence of UniProt P9WGY7 (whole entry, looked up): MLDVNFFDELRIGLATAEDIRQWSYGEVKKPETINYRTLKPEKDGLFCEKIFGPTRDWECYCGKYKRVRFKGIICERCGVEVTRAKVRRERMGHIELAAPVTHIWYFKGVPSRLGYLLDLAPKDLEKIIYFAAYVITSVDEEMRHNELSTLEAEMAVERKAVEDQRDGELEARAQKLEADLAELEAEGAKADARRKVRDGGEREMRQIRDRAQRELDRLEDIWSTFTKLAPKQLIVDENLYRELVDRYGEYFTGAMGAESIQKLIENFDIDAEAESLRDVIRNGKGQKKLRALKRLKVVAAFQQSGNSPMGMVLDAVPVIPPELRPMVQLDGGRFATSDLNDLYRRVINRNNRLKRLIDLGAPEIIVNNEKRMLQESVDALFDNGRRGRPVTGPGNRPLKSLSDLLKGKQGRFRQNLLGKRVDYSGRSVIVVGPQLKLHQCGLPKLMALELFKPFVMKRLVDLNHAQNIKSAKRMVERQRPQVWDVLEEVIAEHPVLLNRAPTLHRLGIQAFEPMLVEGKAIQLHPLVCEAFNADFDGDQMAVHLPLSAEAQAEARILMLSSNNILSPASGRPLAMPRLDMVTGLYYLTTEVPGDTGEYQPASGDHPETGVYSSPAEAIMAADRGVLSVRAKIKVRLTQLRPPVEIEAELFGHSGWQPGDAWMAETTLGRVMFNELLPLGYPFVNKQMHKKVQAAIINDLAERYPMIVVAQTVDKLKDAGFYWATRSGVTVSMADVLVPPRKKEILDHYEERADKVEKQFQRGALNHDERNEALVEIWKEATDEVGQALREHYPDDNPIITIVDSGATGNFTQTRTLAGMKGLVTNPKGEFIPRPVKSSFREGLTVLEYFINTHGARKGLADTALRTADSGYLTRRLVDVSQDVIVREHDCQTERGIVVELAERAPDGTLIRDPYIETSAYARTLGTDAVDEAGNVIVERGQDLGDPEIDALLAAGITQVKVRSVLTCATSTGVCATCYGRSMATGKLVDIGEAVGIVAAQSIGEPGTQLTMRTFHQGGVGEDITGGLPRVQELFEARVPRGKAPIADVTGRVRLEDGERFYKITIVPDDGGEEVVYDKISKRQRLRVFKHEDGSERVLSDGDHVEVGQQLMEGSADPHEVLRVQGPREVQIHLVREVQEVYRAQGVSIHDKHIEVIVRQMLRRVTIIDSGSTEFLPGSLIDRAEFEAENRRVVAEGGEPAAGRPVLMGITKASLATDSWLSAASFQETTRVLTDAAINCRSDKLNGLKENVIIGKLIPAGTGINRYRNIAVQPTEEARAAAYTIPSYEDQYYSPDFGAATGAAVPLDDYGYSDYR
Sequence of UniProt Q8NEC5 (whole entry, looked up): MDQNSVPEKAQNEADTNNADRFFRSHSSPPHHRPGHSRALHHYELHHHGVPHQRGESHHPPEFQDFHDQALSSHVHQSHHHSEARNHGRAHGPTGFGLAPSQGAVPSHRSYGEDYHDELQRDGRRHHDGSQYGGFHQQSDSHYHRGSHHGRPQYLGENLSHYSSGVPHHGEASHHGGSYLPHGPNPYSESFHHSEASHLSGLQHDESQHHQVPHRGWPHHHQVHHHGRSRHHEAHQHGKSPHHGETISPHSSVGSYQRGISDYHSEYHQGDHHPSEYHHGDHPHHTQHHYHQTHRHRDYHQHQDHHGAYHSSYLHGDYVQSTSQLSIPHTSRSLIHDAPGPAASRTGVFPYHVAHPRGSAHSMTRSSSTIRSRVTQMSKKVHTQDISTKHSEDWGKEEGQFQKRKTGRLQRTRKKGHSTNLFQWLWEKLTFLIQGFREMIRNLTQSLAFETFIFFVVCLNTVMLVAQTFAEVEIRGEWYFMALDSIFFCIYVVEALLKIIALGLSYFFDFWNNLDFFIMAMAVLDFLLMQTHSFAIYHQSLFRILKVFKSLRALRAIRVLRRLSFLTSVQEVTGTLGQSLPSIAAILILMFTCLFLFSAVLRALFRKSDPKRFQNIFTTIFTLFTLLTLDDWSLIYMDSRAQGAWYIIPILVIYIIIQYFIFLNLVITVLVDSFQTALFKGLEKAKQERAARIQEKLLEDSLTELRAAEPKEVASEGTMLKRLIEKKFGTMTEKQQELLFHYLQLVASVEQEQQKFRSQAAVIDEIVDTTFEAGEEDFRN
Sequence of UniProt Q96P56 (whole entry, looked up): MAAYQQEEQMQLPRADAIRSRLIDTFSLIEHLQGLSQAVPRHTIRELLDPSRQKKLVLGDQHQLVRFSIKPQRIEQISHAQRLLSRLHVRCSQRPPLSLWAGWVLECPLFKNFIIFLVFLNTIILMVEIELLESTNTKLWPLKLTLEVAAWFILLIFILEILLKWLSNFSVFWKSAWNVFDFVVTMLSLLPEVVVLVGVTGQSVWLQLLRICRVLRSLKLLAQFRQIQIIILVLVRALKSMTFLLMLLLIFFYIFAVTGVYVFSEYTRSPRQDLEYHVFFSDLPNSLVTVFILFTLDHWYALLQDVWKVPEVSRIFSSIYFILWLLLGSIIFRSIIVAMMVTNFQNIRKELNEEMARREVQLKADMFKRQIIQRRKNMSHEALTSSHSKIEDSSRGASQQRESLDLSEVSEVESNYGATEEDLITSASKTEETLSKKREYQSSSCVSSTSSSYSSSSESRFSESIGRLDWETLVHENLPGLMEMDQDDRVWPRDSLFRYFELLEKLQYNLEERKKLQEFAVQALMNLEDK

Compound	target	test	system	conditions	how to read	quantity	result
CO[C@H]1[C@H](O[C@H]([C@H]2O[C@@H](n3ccc(=O)[nH]c3=O)[C@H](O)[C@@H]2O)[C@H](NCCCNC(=O)[C@@H](NC(=O)[C@@H](NC(=O)N[C@H](C(=O)O)C(C)C)[C@@H]2CCN=C(N)N2)[C@@H](OC(=O)CCCCCCCCCCCCN(O)C(=N)N)C(C)C)C(=O)O)O[C@H](CN)[C@H]1O	MurX, Mycolicibacterium smegmatis	enzyme activity, inhibitor	P-60 membrane fraction			IC50	0.018 ± 0.035 µM
COc1ccc2c(c1)[C@]13CCCC[C@@H]1[C@H](C2)N(C)CC3	ADRA2C (Homo sapiens, UniProt P18825)	inhibitor				IC50	10.6 µM
O=C(N[C@H](Cc1ccccc1)C(=O)Nc1ccccc1N1CCOCC1)c1cccs1	DNA-directed RNA polymerase subunit beta' / DNA-directed RNA polymerase subunit beta (Mycobacterium tuberculosis, UniProt P9WGY7+P9WGY9)					IC50	0.29 µM
NCCc1ccc(Oc2ccc(O)cc2)c(I)c1	Slc6a3 (Mus musculus, UniProt Q61327)	dopamine uptake, inhibitor	TAAR1 knock-out mice, striatal synaptosomes	together with: [3H]dopamine 10 nM		IC50	1.2 ± 0.4 µM
CCCCCc1cc(O)c2c(c1)OC(C)(C)c1ccc(C)cc1-2	rat intestinal maltase	inhibitor	rat intestinal acetone powder	10 min, 37 °C, together with: maltose 10 mM		IC50	350 ± 50 µM
Clc1cccc(N2CCNCC2)c1Cl	CHRM4 (Homo sapiens, UniProt P08173)	ERK1/2 phosphorylation, agonist	CHO cells			EC50	> 20 µM
O=c1[nH]c2nc(-c3cccnc3)sc2c(=O)n1O	ilvC	inhibitor		30 min preincubation, together with: NADPH		Ki	0.19 ± 0.02 µM
CCCCCc1cc(O)c2c(c1)OC(C)(C)[C@@H]1CCC(C)=C[C@@H]21	CatSper channel complex (Homo sapiens, UniProt Q7RTX7+Q86XQ3+Q8NEC5+Q96P56)	intracellular Ca2+ increase, agonist, Fluo-4 fluorimetry	human sperm			EC50	1.03 ± 1.2 µM
O=C1NC(=S)N(c2ccc(Cl)cc2)C(=O)C1=Cc1ccc(I)o1	AMC9	enzyme activity, inhibitor		pH 5.5, together with: VRPR-AMC 50 µM		IC50	19 µM
O=c1[nH]c2nc(-c3ccccc3)sc2c(=O)n1O	ilvC	inhibitor		30 min preincubation, together with: NADPH		Ki	0.05 ± 0.005 µM
C[C@H]1CN(c2n[nH]c3nc(N[C@H]4CC[C@H](NS(=O)(=O)CCC(F)(F)F)CC4)ncc23)CCO1	PKN1 (Homo sapiens, UniProt Q16512)	inhibitor, Kinobeads competition profiling		0.16 µM	relative to: vehicle	relative abundance	0.99
CCC(=O)O[C@H]1CC[C@H]2[C@@H]3CCC4=CC(=O)CC[C@]4(C)[C@H]3CC[C@]12C	PGR	agonist				EC50	0.328 µM
COC(=O)[C@@H](NC(=O)c1nn(Cc2ccc(F)cc2)c2ccccc12)C(C)(C)C	CNR1 (Homo sapiens, UniProt P21554)	radioligand displacement		without NaCl, together with: [3H]SR141716		IC50	0.0213 µM
C[C@@H](N[C@H]1CCCC[C@@H]1NC(=O)c1ccc(Cl)cc1)c1cccc2ccccc12	BCHE	inhibitor, fluorometric				IC50	14.6 ± 4.12 µM
O=C1NC(=S)N(c2cccc(Cl)c2)C(=O)C1=Cc1ccc2c(c1)OCO2	AMC9	enzyme activity, inhibitor		pH 5.5, together with: VRPR-AMC 50 µM		IC50	86 µM
CCCc1cc(O)c2c(c1)OC(C)(C)[C@@H]1CCC(C)=C[C@@H]21	TRPV3 (Homo sapiens, UniProt Q8NET8, S444L)	calcium uptake, agonist	HEK293S	mutant S444L, site 2		EC50	3.89 ± 0.58 µM
COc1cc(C=C2C(=O)NC(=S)N(c3cccc(Cl)c3)C2=O)cc(Br)c1O	AMC9	enzyme activity, inhibitor		pH 5.5, together with: VRPR-AMC 50 µM		IC50	25 µM
Nc1nc2[nH]c(=O)n(O)c(=O)c2s1	ilvC	inhibitor		30 min preincubation, together with: NADPH		Ki	2.53 ± 0.22 µM
COc1cc(Br)c(C=C2C(=O)NC(=S)N(c3ccc(Cl)cc3)C2=O)cc1OC	AMC9	enzyme activity, inhibitor		pH 5.5, together with: VRPR-AMC 50 µM		IC50	35 µM
C=C1C[C@@H]2[C@H](CC[C@]3(C)C(=O)CC[C@@H]23)[C@@]2(C)C=CC(=O)C=C12	PGR	inhibitor				IC50	29.3 µM
CCCc1nc2c(=O)n(O)c(=O)[nH]c2s1	ilvC	inhibitor		30 min preincubation, together with: NADPH		Ki	11.5 ± 1.6 µM
O[C@@](Cc1ncc(CC2(C(F)(F)F)CC2)[nH]1)(c1ccc(-n2cccn2)cc1)C(F)(F)F	BCHE	inhibitor, fluorometric				IC50	8.68 ± 3.77 µM
Cc1nc2[nH]c(=O)n(O)c(=O)c2s1	ilvC	inhibitor		30 min preincubation, together with: NADPH		Ki	0.36 ± 0.05 µM
COc1cc(Nc2ncc(F)c(Nc3ccc4c(n3)NC(=O)C(C)(C)O4)n2)cc(OC)c1OC	Renin (REN, Homo sapiens, UniProt P00797)					IC50	> 10 µM
CC(=O)[C@H]1CC[C@H]2[C@@H]3C[C@H](C)C4=CC(=O)CC[C@]4(C)[C@H]3[C@@H](O)C[C@]12C	PGR	agonist				EC50	0.003 µM
CCc1nc2[nH]c(=O)n(O)c(=O)c2s1	ilvC	inhibitor		30 min preincubation, together with: NADPH		Ki	0.37 ± 0.03 µM
CC(Cc1ccccc1)NCCC(c1ccccc1)c1ccccc1 (stereo not shown)	HRH1 (Homo sapiens, UniProt P35367)	inhibitor				IC50	7.87 µM
O=c1[nH]c2sc(-c3cccnc3)nc2c(=O)n1O	ilvC	inhibitor		30 min preincubation, together with: NADPH		Ki	18.3 ± 2.3 µM

Repeated from above:
Compound	target	test	system	conditions	how to read	quantity	result
COc1cc(Br)c(C=C2C(=O)NC(=S)N(c3ccc(Cl)cc3)C2=O)cc1OC	AMC9	enzyme activity, inhibitor		pH 5.5, together with: VRPR-AMC 50 µM		IC50	35 µM
C=C1C[C@@H]2[C@H](CC[C@]3(C)C(=O)CC[C@@H]23)[C@@]2(C)C=CC(=O)C=C12	PGR	inhibitor				IC50	29.3 µM
CCCc1nc2c(=O)n(O)c(=O)[nH]c2s1	ilvC	inhibitor		30 min preincubation, together with: NADPH		Ki	11.5 ± 1.6 µM
